# Experimental data of several laboratories.
# Every numbered part comes from another study and shows a few of its results, in no order.
# Sequence of UniProt O15294 (whole entry, looked up): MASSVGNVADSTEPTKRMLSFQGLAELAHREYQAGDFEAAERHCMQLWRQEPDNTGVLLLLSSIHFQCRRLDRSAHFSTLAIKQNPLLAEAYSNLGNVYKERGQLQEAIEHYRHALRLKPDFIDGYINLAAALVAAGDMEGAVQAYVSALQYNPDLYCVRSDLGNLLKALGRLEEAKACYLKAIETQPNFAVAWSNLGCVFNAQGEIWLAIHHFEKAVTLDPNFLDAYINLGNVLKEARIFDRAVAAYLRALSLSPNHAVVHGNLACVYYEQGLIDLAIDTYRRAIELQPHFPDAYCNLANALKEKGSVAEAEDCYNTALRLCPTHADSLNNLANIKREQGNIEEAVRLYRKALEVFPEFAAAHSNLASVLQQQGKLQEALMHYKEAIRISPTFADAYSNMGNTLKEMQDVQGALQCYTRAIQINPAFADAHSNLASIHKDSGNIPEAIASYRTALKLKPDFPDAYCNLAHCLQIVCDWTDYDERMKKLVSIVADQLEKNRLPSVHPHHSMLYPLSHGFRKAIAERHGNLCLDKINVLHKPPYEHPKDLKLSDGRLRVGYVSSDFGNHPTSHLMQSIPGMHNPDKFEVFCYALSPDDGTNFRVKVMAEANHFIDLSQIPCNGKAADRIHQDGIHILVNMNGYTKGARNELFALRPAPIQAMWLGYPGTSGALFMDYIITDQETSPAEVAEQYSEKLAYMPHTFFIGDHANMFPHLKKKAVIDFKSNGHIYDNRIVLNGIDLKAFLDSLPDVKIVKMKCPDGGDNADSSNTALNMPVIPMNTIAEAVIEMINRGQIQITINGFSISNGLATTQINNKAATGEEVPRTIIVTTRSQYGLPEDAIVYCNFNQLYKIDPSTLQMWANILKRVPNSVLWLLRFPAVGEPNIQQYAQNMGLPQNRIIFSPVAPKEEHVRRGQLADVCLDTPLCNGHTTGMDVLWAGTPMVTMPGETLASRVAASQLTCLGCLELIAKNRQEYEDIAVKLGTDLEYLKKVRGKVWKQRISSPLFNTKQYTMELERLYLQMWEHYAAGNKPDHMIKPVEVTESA

# Set 1
# Target: PABPC1L2, full length, GST fusion (mouse, UniProt A0ABA7IW68)
# Method: RNAcompete
# Molecule type: RNA
# Matrix: in vitro
# Concentration: 20 nM
# Notes: 7-mer, probes averaged, single round
# Reference: mean of 7-mers
# Direction: higher = stronger binding
# Target sequence (chain): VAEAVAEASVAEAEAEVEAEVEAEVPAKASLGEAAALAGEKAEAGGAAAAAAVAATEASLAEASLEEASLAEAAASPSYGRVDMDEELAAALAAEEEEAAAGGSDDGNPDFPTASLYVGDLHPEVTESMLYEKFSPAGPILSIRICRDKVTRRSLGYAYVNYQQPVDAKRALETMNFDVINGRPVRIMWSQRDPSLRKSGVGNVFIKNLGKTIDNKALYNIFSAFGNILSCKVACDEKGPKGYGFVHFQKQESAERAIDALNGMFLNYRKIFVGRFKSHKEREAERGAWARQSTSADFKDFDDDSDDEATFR
Strand,7-mer Z-score
UACAGCA,-0.0881
UGACCUG,-0.168
ACCUGGA,-0.012
UUAUGAG,-0.0953
CGACCGA,0.198
AGUCACU,-0.126
UGGCGUG,-0.204
GACGUUC,-0.298

# Set 2
# Target: Histone acetyltransferase KAT6A, both winged helices, GST fusion (KAT6A, Homo sapiens, UniProt Q92794, residues 1-181)
# Method: protein binding microarray
# Molecule type: double-stranded DNA, one strand shown
# Matrix: in vitro
# Concentration: not given
# Notes: 8-mer, flanks averaged, mean of 2 arrays, mostly near background
# Reference: not given
# Direction: higher = stronger binding
# Construct (chain): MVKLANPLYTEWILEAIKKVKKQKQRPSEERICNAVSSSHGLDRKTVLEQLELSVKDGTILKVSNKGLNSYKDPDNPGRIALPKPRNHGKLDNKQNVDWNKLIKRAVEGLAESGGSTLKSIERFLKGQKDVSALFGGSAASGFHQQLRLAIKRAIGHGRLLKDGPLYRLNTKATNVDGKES
Strand,E-score
CGCGAGTC,0.255
GCTGGATA,-0.127
AGGGAGGA,-0.245
CGAGTTTC,0.0182
GCGGAAGC,0.293
AGTACCGG,0.118
ATCCAGGC,-0.0985
GCAGACGA,-0.0127

# Set 3
# Target: Ras GTPase-activating protein-binding protein 1, full length (G3BP1, Homo sapiens, UniProt Q13283)
# Sequence of UniProt Q13283 (whole entry, looked up): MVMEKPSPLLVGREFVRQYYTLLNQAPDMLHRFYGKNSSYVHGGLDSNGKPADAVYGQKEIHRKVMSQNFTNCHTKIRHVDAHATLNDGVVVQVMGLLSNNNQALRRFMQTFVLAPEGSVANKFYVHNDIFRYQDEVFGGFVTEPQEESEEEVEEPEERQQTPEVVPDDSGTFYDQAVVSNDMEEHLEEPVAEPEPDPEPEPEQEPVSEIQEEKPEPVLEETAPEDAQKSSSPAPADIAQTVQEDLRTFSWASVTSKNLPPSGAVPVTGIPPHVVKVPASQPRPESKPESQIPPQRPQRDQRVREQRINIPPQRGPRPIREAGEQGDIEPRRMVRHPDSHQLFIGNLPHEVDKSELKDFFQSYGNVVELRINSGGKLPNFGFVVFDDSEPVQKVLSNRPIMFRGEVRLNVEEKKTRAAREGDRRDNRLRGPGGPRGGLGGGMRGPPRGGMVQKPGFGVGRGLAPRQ
# Method: RNA Bind-n-Seq
# Molecule type: RNA
# Matrix: in vitro
# Concentration: 200 nM
# Notes: whole 134-nt RNA, ends assumed
# Added: 150 mM KCl
# Reference: input library
# Direction: higher = stronger binding
Strand,log2 enrichment
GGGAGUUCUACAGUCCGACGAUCUAACUUUAGAGGAGGAUCUGAUGGAUAUGGCAGUGGACGUGGAUUUGGGGAUGGCUAUAAUGGGUAUGGAGGAGGACCUGGAUGUGGCAAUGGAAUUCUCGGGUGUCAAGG,0.196
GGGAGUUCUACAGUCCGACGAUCUCCUGUGCUACACAUCGUAUGUACCGAAUCGGGAAAAAAGGGGAAAAAAGGGAAAAAAGGAAAGUAUUAUGUUACGCCGUUCGGAUCUGCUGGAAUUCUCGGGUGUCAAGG,-0.486
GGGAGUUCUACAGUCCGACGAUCGUCCUGUGCUACACAUCGUAUGUACCGAAUCGGGGUUUUUUUGGGGUUUGGGGAGGGGAAAGUAUUAUGUUACGCCGUUCGGAUCUGCACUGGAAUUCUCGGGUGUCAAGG,0.369
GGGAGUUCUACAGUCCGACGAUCUAACUUUAGAGGAGGAUCUGAUGGAUAUGGCAGUGGACGUGGAUUUGGGGAUGGCUAUAUUGGGUAUGGAGGAGGACCUGGAGGUGGCAAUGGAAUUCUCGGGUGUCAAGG,0.425
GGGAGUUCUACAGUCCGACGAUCCCUCAAGUCCUGUGCUACACAUCGUAUGUACCGAAUCGGUGGGUGGGGUGGGAAAGUAUUAUGUUACGCCGUUCGGAUCUGCACUUCCAGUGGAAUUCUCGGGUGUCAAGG,1.06
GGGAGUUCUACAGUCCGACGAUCAGUCCUGUGCUACACAUCGUAUGUACCGAAUCGGGGAAAAGGAAAAGGGAAAAGGGGAAAGUAUUAUGUUACGCCGUUCGGAUCUGCACUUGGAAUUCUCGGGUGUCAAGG,-0.373
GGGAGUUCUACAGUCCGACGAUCCACAGACAACACGCACCCACACAGACACAGAGGGAAGGGGUUGGGAUGGGGACAGGGUGCACAGCAGGGCGGGGUAGGACCUCAGCCCCUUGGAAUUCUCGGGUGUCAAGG,1.7
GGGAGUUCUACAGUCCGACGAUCUGGCCCUGGUGGCAUGCGGGGAGGAAGAGGUGGCCUCAUGGAUCGUGGUGGACCCGGUGGAAUGUUCAGAGGUGGCCGUGGUGGAGACAGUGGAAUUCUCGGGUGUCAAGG,0.284

# Single results of other studies
Molecule,target,test,test system,conditions,how to read,quantity,value
QQQYRDYNPKYIIHY,"UDP-N-acetylglucosamine--peptide N-acetylglucosaminyltransferase 110 kDa subunit (OGT, Homo sapiens, UniProt O15294)","binding, phage display NGS",peptide,concentration not given,reference: input library,enrichment fold change,9.11

# For quick reference, copied from above (set 3):
Strand,log2 enrichment
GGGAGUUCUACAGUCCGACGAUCUCCUGUGCUACACAUCGUAUGUACCGAAUCGGGAAAAAAGGGGAAAAAAGGGAAAAAAGGAAAGUAUUAUGUUACGCCGUUCGGAUCUGCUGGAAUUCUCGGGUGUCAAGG,-0.486
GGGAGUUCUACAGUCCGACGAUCCCUCAAGUCCUGUGCUACACAUCGUAUGUACCGAAUCGGUGGGUGGGGUGGGAAAGUAUUAUGUUACGCCGUUCGGAUCUGCACUUCCAGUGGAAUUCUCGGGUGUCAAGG,1.06
